Measured values collected from several papers.
Values joined by “and” are separate records of one study, mostly repeats; a detail may differ. ± marks the error that the study gave.

Compound	test	system	setting	scale	measurement	result
O=C(NCCc1cccnc1)c1ccc([C@H]2[C@@H](F)[C@@H](F)C[C@@H](F)[C@H]2F)cc1	liver microsome stability	rat liver microsomes	1 µM	–	hepatic clearance	48 mL/min/kg
C=CC(=O)Nc1cc(Nc2nccc(-c3cn(C)c4ccccc34)n2)c(OC)cc1N(C)CCN(C)C	storage stability	human plasma	5 h, on ice, low QC level	–	recovery	95.6%
CN1C(=O)[C@@H](NC(=O)c2nnc(Cc3ccccc3)[nH]2)COc2cccnc21	phase I multiple ascending dose	human, male and female	oral, 100 mg, 14 days	–	TEAE leading to permanent discontinuation	0%
CN1CCN(C(=O)c2ccc(C3CCCCC3)cc2)CC1=O	liver microsome stability	human liver microsomes	1 µM, without NADPH	–	hepatic clearance	3.9 mL/min/kg
C[Si]1(C)O[Si](C)(C)O[Si](C)(C)O[Si](C)(C)O1	IVIVE from S9	rainbow trout (Oncorhynchus mykiss)	–	–	hepatic biotransformation rate constant	0.037 h⁻¹ and 0.069 h⁻¹ and 0.038 h⁻¹
C[C@@H](Nc1cc(F)cc(F)c1)c1cc(C(=O)N(C)C)cc2c(=O)cc(N3CCOCC3)oc12	item: Rash	advanced solid tumour patients	oral, dose not given, dose finding	–	related serious adverse events	0%
O=C(O)CCC(=O)O.[2H]C([2H])([2H])Oc1cc(C)c2[nH]ccc2c1CN1CC[C@@H](C2CC2)C[C@H]1c1ccc(C(=O)O)cc1	multiple ascending dose	healthy Chinese subjects	200 mg once daily	–	subjects with reduced potassium TEAE	0%
CNCc1ccc(-c2[nH]c3cc(F)cc4c3c2CCNC4=O)cc1	–	human patients	oral, 480 mg twice daily, all grades	–	dysgeusia incidence	11.1%
CC(C)n1c(Nc2cccnc2)nc2cnc(Nc3ccc(N4CCN(C)CC4)cc3)nc21	item: γ-glutamyltransferase increased	healthy male subjects	oral, 100 mg, study, together with: gemfibrozil	–	subjects with adverse event	0%
CSCC[C@H](NC(=O)[C@@H](N)CCSC)C(=O)N[C@@H](CCCNC(=N)N)C(=O)N[C@@H](Cc1c[nH]c2ccccc12)C(=O)N[C@@H](CO)C(=O)N[C@@H](CCCNC(=N)N)C(=O)N[C@@H](CCCCN)C(=O)N[C@@H](CCSC)C(=O)N1CCC[C@H]1C(=O)N[C@@H](CS)C(=O)N[C@H](C(=O)N[C@@H](CO)C(N)=O)C(C)C	12G5 competition, SUP-T1 cells	human plasma	concentration not given, 8 h	–	remaining activity	1 ± 0.3%
CC(C)C[C@H](NC(=O)CNC(=O)c1cc(Cl)ccc1Cl)B(O)O	item: Pneumonia	human newly diagnosed multiple myeloma	oral, dose not given, maintenance, grade 3, onset cycle 17 or later	–	treatment-emergent adverse events	0%
CN(C)CCC(=O)Nc1ccc(C2CCCCC2)cc1	liver microsome stability	cynomolgus liver microsomes	1 µM	–	hepatic clearance	35 mL/min/kg
Cc1ccc([C@@H]2O[C@H](CO)[C@@H](O)[C@H](O)[C@H]2O)cc1Cc1ccc(-c2ccc(F)cc2)s1	–	Japanese type 2 diabetes patients	25 mg, day 5, 24 h urine collection	baseline: baseline	urinary sodium excretion change	21.6 mEq
CCn1cc(C(=O)N2CCOCC2)c(=O)c2cc(NC3Cc4ccccc4C3)cnc21	–	human, fed	oral tablet, 300 mg single dose, median	–	Tmax	4 h
CCN1CCN(Cc2ccc(NC(=O)c3ccc(C)c(NC(=O)c4cncc(-c5cccs5)c4)c3)cc2C(F)(F)F)CC1	LC-MS/MS	C57BL/6 mouse, plasma	intraperitoneal, 15 mg/kg single dose, 8 h	–	mean plasma concentration	45 ng/mL
CC(C)(C)NC(=O)C1CCN(Cc2ccc(/N=N/c3ccc(F)cc3)cc2)CC1	–	DMSO	25 µM, 25 °C	–	absorption maximum, trans isomer	335 nm
CN1CCC(c2ccc(-c3ccc(C4CCCCC4)cc3)cn2)CC1	liver microsome stability	dog liver microsomes	1 µM	–	hepatic clearance	27 mL/min/kg
OC[C@H]1O[C@@H](Oc2c[nH]c3ccccc23)[C@H](O)[C@@H](O)[C@@H]1O	ultrafiltration	normal rat serum	37 °C	–	serum protein binding	96 ± 3%
COCCOc1cnc2ccn([C@H](C)c3nnc4c(F)cc(-c5cnn(C)c5)cn34)c(=O)c2c1	–	patients, plasma	oral, 100 mg twice daily, day 28, 200 per day	–	Cmax	2140 ng/mL

Compound	test	system	setting	scale	measurement	result
O=C(Nc1ccc(Cl)cc1)Nc1ccc(Cl)c(Cl)c1	–	whole cow milk	2000 nM nominal	–	dose fraction in skim milk	10.8%
O=C(NCCN1CCCC1=O)c1ccc(C2CCCCC2)cc1	liver microsome stability	cynomolgus liver microsomes	1 µM	–	hepatic clearance	41 mL/min/kg
C=CC(=O)NC1CCN(c2ncc3ncnc(Nc4ccc(Oc5ccc6c(c5)ncn6C)c(C)c4)c3n2)CC1	–	healthy male humans, plasma	oral, dose not given, together with: carbamazepine	baseline: with over without carbamazepine	AUC(0-tz) ratio	37.8%
N#Cc1ccc2c(c1)[C@H]1CCCN(C(=O)c3ccc4[nH]cnc4c3)[C@H]1C2	–	human, female	40 mg, day 15	–	androstenedione level	8.6 nmol/L
O=C(N[C@H](Cc1c[nH]c2ccccc12)C(=O)Nc1ccncc1)c1ccc(N2CCN(c3ccc(F)cc3F)CC2)cc1F	–	Swiss Webster mouse, female, brain	oral, 50 mg/kg, 8 h, 20% HPβCD vehicle	–	concentration	580 nM
CN[C@H](CC(C)C)C(=O)N[C@H]1C(=O)N[C@@H](CC(N)=O)C(=O)N[C@H]2C(=O)N[C@H]3C(=O)N[C@H](C(=O)N[C@H](C(=O)O)c4cc(O)cc(O)c4-c4cc3ccc4O)[C@H](O)c3ccc(c(Cl)c3)Oc3cc2cc(c3O[C@@H]2O[C@H](CO)[C@@H](O)[C@H](O)[C@H]2O[C@H]2C[C@](C)(N)[C@H](O)[C@H](C)O2)Oc2ccc(cc2Cl)[C@H]1O	–	poloxamer 407 hydrogel	pH 7.4, 37 °C, co-formulated with antibiotics	–	release half-life	3 h
O=C(Nc1nc2cccc(-c3ccc(CN4CCS(=O)(=O)CC4)cc3)n2n1)C1CC1	item: dysgeusia	human rheumatoid arthritis patients	oral, 150 mg once daily, 4 weeks, regardless of relatedness	–	treatment-emergent adverse events	0%
CCCOc1ccc(NC(=O)CN2CCN(C)CC2)cc1-c1nc(CC)c(CC)c(=O)[nH]1	–	healthy Chinese men	10 mg, supine or semi-supine, together with: alcohol 0.5 g/kg	baseline: baseline	maximal decrease in systolic BP	-11.3 ± 7.45 mmHg
NC1(C(=O)N[C@@H](CCO)c2ccc(Cl)cc2)CCN(c2nc[nH]c3nccc2-3)CC1	–	metastatic CRPC patients	320 mg b.i.d., grade 3 to 4, treatment-related, together with: enzalutamide 160 mg daily	–	incidence of Somnolence	0%
COc1cc(Nc2ncc3c(n2)-c2ccc(Cl)cc2C(c2c(F)cccc2OC)=NC3)ccc1C(=O)O	item: Nausea, grade 3	cancer patients, phase 1/2	oral, dose not given, together with: pembrolizumab	–	patients with adverse event	8%
O=C(CCC(C(=O)[O-])N1CCN(C(CCC(=O)NCC(O)CO)C(=O)[O-])Cc2cccc(n2)CN(C(CCC(=O)NCC(O)CO)C(=O)[O-])CC1)NCC(O)CO.[Gd+3] (stereo not drawn)	ICP-MS	rat, femur diaphysis	intravenous, 0.6 mmol Gd/kg, 1 week	–	Gd concentration	2.7 nmol/g
C=CC(=O)NC1CCN(c2ncc3ncnc(Nc4ccc(Oc5ccc6c(c5)ncn6C)c(C)c4)c3n2)CC1	item: total radioactivity	healthy male volunteers, plasma	oral solution, 60 mg, together with: [14C]-labelled compound	–	AUC0–tz	23.7 µM·h
COc1ccc2cc(CCC[18F])ccc2c1	gel filtration	human plasma	30 min, 37 °C	–	fu	0.212
CC(=O)N(C)C1CCN(c2cc(F)cc(NC(=O)c3cc4c(F)ccc(C)c4[nH]3)c2)C1 (stereo not drawn)	–	CD1 mouse, plasma	oral, 50 mg/kg, 4 h	–	plasma concentration	21.1 ng/mL
NC(=O)CCNC(=O)c1ccc(C2CCCCC2)cc1	liver microsome stability	cynomolgus liver microsomes	1 µM	–	hepatic clearance	19 mL/min/kg
COc1ncc(-c2nc3c(n2C(C)C)[C@H](c2ccc(Cl)cc2)N(c2cc(Cl)cn(C)c2=O)C3=O)c(OC)n1	–	human patients, plasma	oral, 100 mg, high-dose arm, cycle 1 day 1	–	AUC(0-t) geometric mean	14300 ng·h/mL
Cl.N=C(CC(O)c1cc2c(F)cc(F)cc2c2cc(C(F)(F)F)ccc12)Nc1ccc(Br)cc1 (stereo not drawn)	–	human plasma	50 ng/mL, 24 h, 37 °C	–	degradation	46.5%
CCO[C@H]1CCN(Cc2c(OC)cc(C)c3[nH]ccc23)[C@H](c2ccc(C(=O)O)cc2)C1	–	PNH patients, active haemolysis	oral, 200 mg, 8 weeks, treatment	–	incidence of dyspepsia	0%
CCO[C@H]1CCN(Cc2c(OC)cc(C)c3[nH]ccc23)[C@H](c2ccc(C(=O)O)cc2)C1	–	human mild hepatic impairment, plasma	oral, 200 mg single dose, mean	–	unbound AUCinf	5980 ng·h/mL

Compound	test	system	setting	scale	measurement	result
Cl.[2H]C([2H])([2H])CC(=O)c1cnc(NC(=O)C2CC2)cc1Nc1cccc(-c2ncn(C([2H])([2H])[2H])n2)c1OC	geometric mean	human	oral, 50 mg single dose, fasted, liquid	–	elimination rate constant	2.58e-05 s⁻¹
COc1ccnc(C(=O)O)c1O	soil adsorption	clay soil	pH 7.6, organic carbon 1.7 %	–	KFoc	5520 mL/g
CC(C)(C(=O)N1CCOc2c(C#N)cncc2C1)C(F)F	–	human, both sexes	oral, 20 mg single dose	–	subjects with investigations TEAE	0%
CCc1cc(C(=O)NC)c2nccc(N3CCc4c(cc(Cn5ccnc5)cc4-c4cn(C)nc4C(F)(F)F)C3=O)c2c1	–	Sprague Dawley rats	oral, 100 mg/kg twice daily, 7 days	baseline: vehicle	blood CH change	0.86%
O=C(NCC1CCOCC1)c1ccc(C2CCCCC2)cc1	liver microsome stability	dog liver microsomes	1 µM	–	hepatic clearance	27 mL/min/kg
CCC(=O)N(CCC(c1ccc2c(c1)OCO2)c1ccccc1OC)Cc1ccccc1 (stereo not drawn)	–	mouse, blood	i.p., 60 mg/kg twice daily, 2 weeks	–	BUN/creatinine ratio	128
c1ncc(-c2ccc(C3CCCCC3)cc2)cn1	liver microsome stability	rat liver microsomes	1 µM	–	hepatic clearance	44 mL/min/kg
O=C(O)CCCOc1ccc([18F])cc1-c1cc(-c2ccccc2C(F)(F)F)n(-c2ccccc2)n1	radio-TLC	ddY mice male, plasma	intravenous, 37 MBq, 15 min	–	unchanged fraction of radioactivity	90.7 ± 2%
Cn1ncnc1[C@H]1c2n[nH]c(=O)c3cc(F)cc(c23)N[C@@H]1c1ccc(F)cc1	–	human patients, plasma	oral, 600 µg/m2 twice daily, day 1, monotherapy, dose level DL3, median	–	AUC(0-8h)	12.3 ng·h/mL
CCOc1ccc2ccc(=O)oc2c1	–	human liver microsomes	1 µM, 60 min, pH 7.4, together with: with cofactors	–	remaining compound	17.1%
FC(F)=Cc1cc(C(F)(F)F)cc(C(F)(F)F)c1	chemical stability, HPLC-MS	borate buffered saline	pH 10.2, no N-acetyl-lysine	–	degradation rate constant	0.2 h⁻¹
O=C(CCCCCCC(=O)Nc1ccc(CC[18F])cc1)NO	–	athymic nu/nu male mice, LNCaP xenograft, liver	intravenous, 2 h	–	tissue uptake	1.2 ± 0.6 %ID/g
Cc1nc2cccc(OCC(C)(C)C(=O)NC(C)C)c2c(N)c1C(=O)O	–	male Swiss albino CD-1 mouse, bone marrow	oral, 1000 mg/kg, 24 h	–	micronucleated polychromatic erythrocytes	0.05%
Cc1cc(-c2nccc3c2ccn3CC(=O)Nc2ccc(-c3cnccn3)cn2)ccn1	–	human	15 mg once daily, multiple ascending dose	–	subjects with suture rupture	0%
CCOc1c([C@H](C)n2nc(C)c3c(N)ncnc32)cc(Cl)c(F)c1[C@@H]1CNC(=O)C1	ECG	previously treated B-cell malignancy patients	oral, 5 mg once daily, baseline below thresholds	–	observations with HR ≤100 bpm	100%
CCN1/C(=C/C(C)=O)Sc2ccc(F)cc21	–	cynomolgus monkey	oral, 10 mg/kg, 1 h post-dose	–	QT interval	240 ± 22 ms
C=CC(=O)Nc1cc(Nc2nccc(-c3cn(C4CC4)c4ccccc34)n2)c(OC)cc1N(C)CCN(C)C	–	BALB/c nude mouse, LU0387 xenograft, blood	oral, 40 mg/kg	–	LYMPH percentage	54.7 ± 5.62%
O=C(COc1ccc(Cl)cc1)NC12CC(c3nnc([C@H]4C[C@@H](OC(F)(F)F)C4)o3)(C1)C2	item: Tachycardia	healthy humans, both sexes	oral, 400 mg, single ascending dose	baseline: subjects	treatment-emergent adverse events	16.7%
CC(C)Cn1cnc2c(N)nc3ccccc3c21	–	C57BL/6J mice, female, beta-naphthoflavone-treated, liver microsomes	1 µM, 30 min	–	remaining compound	5%

A few entries again:
Compound	test	system	setting	scale	measurement	result
CCc1cc(C(=O)NC)c2nccc(N3CCc4c(cc(Cn5ccnc5)cc4-c4cn(C)nc4C(F)(F)F)C3=O)c2c1	–	Sprague Dawley rats	oral, 100 mg/kg twice daily, 7 days	baseline: vehicle	blood CH change	0.86%
O=C(NCCN1CCCC1=O)c1ccc(C2CCCCC2)cc1	liver microsome stability	cynomolgus liver microsomes	1 µM	–	hepatic clearance	41 mL/min/kg
CN[C@H](CC(C)C)C(=O)N[C@H]1C(=O)N[C@@H](CC(N)=O)C(=O)N[C@H]2C(=O)N[C@H]3C(=O)N[C@H](C(=O)N[C@H](C(=O)O)c4cc(O)cc(O)c4-c4cc3ccc4O)[C@H](O)c3ccc(c(Cl)c3)Oc3cc2cc(c3O[C@@H]2O[C@H](CO)[C@@H](O)[C@H](O)[C@H]2O[C@H]2C[C@](C)(N)[C@H](O)[C@H](C)O2)Oc2ccc(cc2Cl)[C@H]1O	–	poloxamer 407 hydrogel	pH 7.4, 37 °C, co-formulated with antibiotics	–	release half-life	3 h
CCOc1c([C@H](C)n2nc(C)c3c(N)ncnc32)cc(Cl)c(F)c1[C@@H]1CNC(=O)C1	ECG	previously treated B-cell malignancy patients	oral, 5 mg once daily, baseline below thresholds	–	observations with HR ≤100 bpm	100%
CN(C)CCC(=O)Nc1ccc(C2CCCCC2)cc1	liver microsome stability	cynomolgus liver microsomes	1 µM	–	hepatic clearance	35 mL/min/kg
O=C(N[C@H](Cc1c[nH]c2ccccc12)C(=O)Nc1ccncc1)c1ccc(N2CCN(c3ccc(F)cc3F)CC2)cc1F	–	Swiss Webster mouse, female, brain	oral, 50 mg/kg, 8 h, 20% HPβCD vehicle	–	concentration	580 nM
CCN1CCN(Cc2ccc(NC(=O)c3ccc(C)c(NC(=O)c4cncc(-c5cccs5)c4)c3)cc2C(F)(F)F)CC1	LC-MS/MS	C57BL/6 mouse, plasma	intraperitoneal, 15 mg/kg single dose, 8 h	–	mean plasma concentration	45 ng/mL
